Measurements pooled from the literature.
Parts stem from different laboratories: compare values within a part only. Values joined by “and” are separate records of one study, mostly repeats; a detail may differ.

Series 1
Target: PABPC1L2, full length, GST fusion (mouse, UniProt A0ABA7IW68)
Technique: RNAcompete
Form: RNA
Sample: in vitro
Concentration: 20 nM
Notes: 7-mer, probes averaged, single round
Reference: mean of 7-mers
Direction: higher = stronger binding
Target sequence (chain): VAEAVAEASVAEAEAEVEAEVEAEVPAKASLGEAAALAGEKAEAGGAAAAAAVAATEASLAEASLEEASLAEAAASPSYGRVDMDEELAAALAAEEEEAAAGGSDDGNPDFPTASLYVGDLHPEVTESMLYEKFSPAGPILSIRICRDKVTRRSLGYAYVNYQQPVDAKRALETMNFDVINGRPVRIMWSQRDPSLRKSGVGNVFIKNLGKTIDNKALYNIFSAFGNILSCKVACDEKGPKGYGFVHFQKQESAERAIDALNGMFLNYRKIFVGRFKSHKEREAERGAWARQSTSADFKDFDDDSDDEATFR
With `AGCCCCC` the 7-mer Z-score was -0.44.
For `UAGCUAA`, the 7-mer Z-score was -0.0881.
For `GAAUUGG`, the 7-mer Z-score was -0.00652.
`GAGAAUC` has a 7-mer Z-score of -0.151.
`CCCGCUA` gave a 7-mer Z-score of -0.382.
With `CGCUGUG` the 7-mer Z-score was -0.318.
For `GGGGGUG`, the 7-mer Z-score was 0.282.

Series 2
Target: Runt-related transcription factor 1 (RUNX1, Homo sapiens, UniProt Q01196, residues 1-453, full length assumed)
Sequence of UniProt Q01196 (whole entry, looked up): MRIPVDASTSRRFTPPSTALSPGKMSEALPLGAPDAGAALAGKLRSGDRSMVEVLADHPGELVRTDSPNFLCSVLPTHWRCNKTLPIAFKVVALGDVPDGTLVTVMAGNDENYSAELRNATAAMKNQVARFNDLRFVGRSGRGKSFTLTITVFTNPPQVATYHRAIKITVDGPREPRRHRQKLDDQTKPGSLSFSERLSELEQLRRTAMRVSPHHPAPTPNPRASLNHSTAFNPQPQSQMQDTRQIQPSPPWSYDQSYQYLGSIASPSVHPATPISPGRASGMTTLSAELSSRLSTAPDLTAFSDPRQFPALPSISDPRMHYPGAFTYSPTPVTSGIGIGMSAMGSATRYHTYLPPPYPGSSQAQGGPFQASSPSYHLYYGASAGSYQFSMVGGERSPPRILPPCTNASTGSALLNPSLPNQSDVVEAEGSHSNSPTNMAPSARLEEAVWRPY
Technique: protein-binding microarray
Form: double-stranded DNA, one strand shown
Sample: in vitro
Concentration: not given
Notes: k-mer, scored over probes, only values ≥0.25
Direction: higher = stronger binding
`ACCACTA` has an E-score of 0.296.
For `CGGTTTC`, the E-score was 0.267.
`CAACCAC` gave an E-score of 0.379.
The E-score of `ACACACA` is reported as 0.25.
With `CACATTC` the E-score was 0.29.
`CCACACA` gave an E-score of 0.32.
`GCCGCAA` gave an E-score of 0.338.
`AATGCGG` has an E-score of 0.313.
For `AACCGCA`, the E-score was 0.497.

Series 3
Target: RNA binding protein fox-1 homolog 2, RRM domain, GST-SBP tag (RBFOX2, Homo sapiens, UniProt O43251-10, residues 100-194)
Technique: RNA Bind-n-Seq
Form: RNA
Sample: in vitro
Concentration: 365 nM
Notes: natural RNA segment, single round, ends assumed
Reference: no-protein control
Direction: higher = stronger binding
Constant ends, left off below: GGGAGUUCUACAGUCCGACGAUC … UGGAAUUCUCGGGUGCCAA
Construct (chain): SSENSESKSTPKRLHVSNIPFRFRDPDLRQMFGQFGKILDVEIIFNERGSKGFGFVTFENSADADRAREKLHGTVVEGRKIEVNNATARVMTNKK
`UCGGGAUUCCCUGGUGGGCCUCGACGUCCCUUGGAUCAGAGGUCAUCCCUUCCUCCUCUCCUGGAAACAGACAGGGAGAAGUUGAGCAGGUAUCAACUAGGGGAGGAGAG` — result for “RBNS enrichment (R)”: 0.247.
`AGGUCUAGCCUUAGGAGCAAAUGUAGUAGAUAGUCGAAUAAUAAAUAACUUAAUGUUUUGGACAUAUUUUGUCUACUUUUGAGAAUUAUUUUUAAUAUGUAAAUUCUCUC` — result for “RBNS enrichment (R)”: 0.718.
`GCGCUCGCUUUCAUGGGACCAGACGUGAUGCUGGAAGGUGGGCGUCGUCACGGUUAAAGAGAAAUGGGCUCGUCCCGAGGGUAGUGCCUGAUCAAUGAGGGCGGGGCCUG` — result for “RBNS enrichment (R)”: 0.587.
`UCCUGCCCUCUGUGGUCAUCUGCCACCUGCUGGAUCAAGUGCUUUCUCUUUUACACUCCCCUGUCCCCACCCCAGUGCACUCUUCUGGCCCAGGCAGCAAGCAAGCUGUG`: “RBNS enrichment (R)” 0.642.
For `UGGAUAUCCUCAAUUCUUAAGACAGCUUGUAAAUGUAUUUGUAAAAAUUGUAUAUAUUUUUACAGAAAGUCUAUUUCUUUGAAACGAAGGAAGUAUCGAAUUUACAUUAG`, “RBNS enrichment (R)” read 0.396.
Under “RBNS enrichment (R)”, `GUAGUGCAGAAAGAAUCCAGGGAUGGGAGGGGAAGGGACGGAUGGGUGCUCAAUUGCUGCUCACGUCUGCUGCAACCUGAAGCUUGCAUCUCAGCCAGCAGAUCUGCUCC` is recorded as 0.43.
Under “RBNS enrichment (R)”, `GGGUCAUUGGAAACCAUAAUGCAGAGUGGGCCCCCUACUCCAUUUCCCAGCAAAAGGCUCCAGCUGGAGGGAUGGGUUGUGGGGCAACCUGGUUCCUGCUAACUGCCAGA` is recorded as 0.5.
Under “RBNS enrichment (R)”, `UGUUGAAGGGCUUCAGCCACAUUCAAAAUAAGUAGGUGGUUUAUCUUUGACAUCUUUUAAAGAGUCUGGAUAAAUCUGACUCGUUGCUCAAUAGGGUUUAUUUGGCAGUG` is recorded as 0.361.

Further values, each from its own experiment
With `PhoQ, residues 284 288 289 292 302 303 TASMAF` the fold induction was 12.9 and 24.8 (PhoP, residues 12 14 15 18 19 LWHSL (Escherichia coli, UniProt P23836); Sort-seq, measured: YFP reporter; E. coli; PhoQ-PhoP variant library, together with: 10 µM Mg2+; reference: high Mg2+ state, higher = stronger signaling).

For quick reference, copied from above (series 2):
`CAACCAC` gave an E-score of 0.379.
The E-score of `ACACACA` is reported as 0.25.
With `CACATTC` the E-score was 0.29.
